Measurements from different studies.
Compare with care: the assays were run in different laboratories. Several values in a cell are separate wells, animals, samples, runs or records. ± gives the spread as reported.

Compound	assay	test system	conditions	terminal half-life
O=C(c1cccnc1-c1ccncc1)N1CCC(O)(Cc2ccccc2)CC1	–	healthy Japanese adults, plasma	oral, 200 mg twice daily, day 14	2.62 h
CS(=O)(=O)c1ccc([C@@H](O)[C@@H](CF)NC(=O)C(Cl)Cl)cc1	–	Arbor Acres chickens, plasma	oral, 20 mg/kg, added: quercetin 60 mg/kg pretreatment	2.07 ± 0.58 h
C=CC(=O)NC1CCN(c2ncc3ncnc(Nc4ccc(Oc5ccc6c(c5)ncn6C)c(C)c4)c3n2)CC1	measured: total radioactivity	healthy male volunteers, whole blood	oral solution, 60 mg, 14C-labelled	1250 h
C=CC[C@@H]1/C=C(\C)C[C@H](C)C[C@H](OC)[C@H]2O[C@@](O)(C(=O)C(=O)N3CCCC[C@H]3C(=O)O[C@H](/C(C)=C/[C@@H]3CC[C@@H](O)[C@H](OC)C3)[C@H](C)[C@@H](O)CC1=O)[C@H](C)C[C@@H]2OC	–	healthy adults, whole blood	oral, geometric mean	33.3 h and 33.6 h
C[C@@]1(c2cc(NC(=O)c3ccc(C#N)cn3)ccc2F)C=CSC(N)=N1	–	elderly men and women, plasma	oral, 1 mg single dose	11.7 h
CC(=O)Nc1ccc(C[C@H](NC(=O)[C@H](CO)NC(=O)[C@@H](Cc2cccnc2)NC(=O)[C@@H](Cc2ccc(Cl)cc2)NC(=O)[C@@H](Cc2ccc3ccccc3c2)NC(C)=O)C(=O)N[C@H](Cc2ccc(NC(C)=O)cc2)C(=O)N[C@@H](CC(C)C)C(=O)N[C@@H](CCCCNC(C)C)C(=O)N2CCC[C@H]2C(=O)N[C@H](C)C(N)=O)cc1	–	healthy men, fasted, serum	oral, 10 mg single dose	7.4 ± 3.1 h
C#C[C@]1(O)CC[C@H]2[C@@H]3CCC4=CC(=O)CC[C@@H]4[C@H]3CC[C@@]21C	radioimmunoassay	HIV-infected women, no protease inhibitor, serum	oral, 0.35 mg, geometric mean	24.3 h
COc1nnc2ccc(N3CCC(c4ccc(OCCN5CCN(C)C(=O)[C@H]5C)cc4)CC3)nn12	–	patients, plasma	oral, 15 mg twice daily, single dose, monotherapy	2.16 h

Excerpt of the above:
Compound	assay	test system	conditions	terminal half-life
C=CC[C@@H]1/C=C(\C)C[C@H](C)C[C@H](OC)[C@H]2O[C@@](O)(C(=O)C(=O)N3CCCC[C@H]3C(=O)O[C@H](/C(C)=C/[C@@H]3CC[C@@H](O)[C@H](OC)C3)[C@H](C)[C@@H](O)CC1=O)[C@H](C)C[C@@H]2OC	–	healthy adults, whole blood	oral, geometric mean	33.3 h and 33.6 h
